Assay results from different studies.
Parts stem from different laboratories: compare values within a part only.

Block 1 — technique: RNA Bind-n-Seq; form: RNA; medium: in vitro; tested at: 100 nM; relative to: input RNA pool; direction: higher = stronger binding
Target: RING finger protein unkempt homolog, zinc fingers 1-6, SBP tag (UNK, Homo sapiens, UniProt Q9C0B0, residues 30-357)
Chain of UniProt Q9C0B0 (30-357, looked up): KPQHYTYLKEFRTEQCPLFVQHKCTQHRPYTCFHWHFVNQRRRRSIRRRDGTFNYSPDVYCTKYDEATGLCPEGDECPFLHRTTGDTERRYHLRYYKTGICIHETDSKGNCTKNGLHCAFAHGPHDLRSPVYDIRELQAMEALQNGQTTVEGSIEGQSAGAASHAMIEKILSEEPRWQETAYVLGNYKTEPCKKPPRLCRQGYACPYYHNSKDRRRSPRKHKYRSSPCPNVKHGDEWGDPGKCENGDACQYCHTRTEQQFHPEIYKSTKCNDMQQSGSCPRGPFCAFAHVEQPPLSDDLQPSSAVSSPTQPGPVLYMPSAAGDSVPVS
Notes: RNA with constant flanks, vertebrate orthologous sites, ends assumed
Shared flanks, not repeated: GGGAGUUCUACAGUCCGACGAUC … CAACAGAGGAUUGAGCAUCA
Strand	bound/input enrichment
CAGUUUAGAUAUUCUUUUAAUUUUUUUUCUUUUCCCUUAAUCCUUUUUUAUUUUUAAAAAUAGUUCUUUUGUAACGUGGUGUUCAAAAUGGAAUUGAAAACAGGCGCCUCUCUUUAAAAC	7.16 ratio
CCGCUGAUUCGCUCAUUGGGAGAGCAGCACAUAUAGCUGUUCUUGAUUCAGAAAUAUUUUUAGAGAAAUUCUUUCUGGUUGCUGCCCUAAAAUAUUUCCAGUAGAAUAAAAGCAUUGUUA	0.59 ratio
GCACAUGCCGUUAUCACCAAAAGCAAACUAUCACUUUUCAAAUUUCAUUCUGAGCCGUUUUAGUGUUUCCUAUUCCCUACUCUUCCCACUACUUUCAAUGAUACAAUAUCCUGAGUUUUC	2.49 ratio
UAUAAUUAUGAAAAUCUAACGGAUUUUUAAUGUUUAAUUUCCCCCAACAUAUAUAUGAAGACCUUUUUUUUUUUUUCCAGGCAGAUCAUUCAGAGUGUGCGAGUGUGUGUGCACAUGUUA	1.1 ratio
CAGCUGAUUCACUUAUUGGGAGAGCUGCACAUAUAGCUGUUCUUGAUUCAGAAAUAUUUUUAGAGAAAUUCUUUCUUGUUGCUGCCCUAAAAUAUUUUCAGUAGGAUAAAAACAUUGUUA	0.574 ratio
CCGAAAGGCCAAAUUCCCUCCUCCCUUCUACUGCUUCUACCAACUGGAAGCACAGAAAACUAGAAUUACAUUUAUUUUGUUUUUUAAAAAAUAUACGUUGAUUUCUUGUAACAUUCAGUA	0.859 ratio
GGGAGAUACUGAAUAUUAUUAACAUUAUCGUCUUCCUGUACUUUUUUGUGCCCUAAUACCUACUCUACUUUUUAAAUUUUCAGGCUUCAAUGAUCUUUGAAUUGAUCCAGUUUUCACAUU	0.63 ratio
UGACCCCCUCCCUGGUGAGAGGGAGUGGGGAGCUCAGGAUGACCCUCAGCUGUUCCAAUCCGGUAUUUUUUUUUCUUUUUCAAAAUUACUGUAUUUAUUAUGACGAUGGUGACUCCCCGG	0.729 ratio
AUCACAGUCGCUUUUUACCACCUCAAUGAGGUAGAGUCUCUCUUGGCAUGUGGUUGUUACAAGAGCCAGUCGUACCUGACAAGUCUCUCCACAUUUCAUUUCUUUCACAUUCUUGGUCUU	0.483 ratio
UUAUACUGGCCAAACAUUUUUGACUUAGGACUUAUUUUGACCUUUUUUUUUUUUUUUGGUGGUUCUCGUUACCCGCCCCAUGUAUUUGUUUCCUUCACUGAAGGGCUAGAGUUUUAACUU	1.26 ratio
GUAUCUUGGUUUGGGGUAGAGGGGAGGGAGGGGCAGGACUGUGGAAUCUCUAGUGGGUAUGGGUAUAUAGGGUGCACAGUUCUAAGUGGGCCUUUAUGUUAAAAACCUCUGGGGGUGUCU	0.908 ratio

Block 2 — technique: RNA Bind-n-Seq; form: RNA; medium: in vitro; tested at: 365 nM; relative to: no-protein control; direction: higher = stronger binding
Target: RNA binding protein fox-1 homolog 2, RRM domain, GST-SBP tag (RBFOX2, Homo sapiens, UniProt O43251-10, residues 100-194)
Notes: natural RNA segment, single round, ends assumed
Shared flanks, not repeated: GGGAGUUCUACAGUCCGACGAUC … UGGAAUUCUCGGGUGCCAA
Residues (chain): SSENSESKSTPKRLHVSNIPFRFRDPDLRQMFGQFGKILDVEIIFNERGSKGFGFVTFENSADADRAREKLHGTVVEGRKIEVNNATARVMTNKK
Strand	RBNS enrichment (R)
UCCUGGCAUGGAUGUUCUGUCCACACUUGAGGCUGGGCGGUGUAUCAGACCCUUCAAGCAGCCUGGCUGGGGCCCAGGACUGAGUCUGGGGUCAGCUUUCACGGUCGCUU	1.06
GGCUUUCUAAAAGUAUGAAACAUCCUUCAACUGGGCUCUCUUGUUAAUAGGACAUCAUAUGGUAAUAGACUGGUUUGACUAUAUUGUUAGCUGCCACAGUAAGCAGGUCA	0.271
UGCUAGGUUAUGGAAGAUGUAAAAUAUUCAACUUUUUCCUCCUUUUUUUGGACUUUGUAUUUUACUGCAUGUUUUCUUCAUUUUUAAUCAAUAAAGAGUAAAUUGUCCUU	50.7
UGUGAGCUAAGGCUGAAGAGACCUUGCCUGUGGGAGCUGGGGUGGUACCUGCCCCAACAGCCCCCCAUCAUCUGAUUUUGGGUGUGACCCCUCGAGUGUGCAUGCCACCC	2.21
UAUAUAUGUAUAUAAAAUAUAUAUUGCAUAGGACAGACUUAGGAGUUUUGUUUAGAGCAGUUAACAUCUGAAGUGUCUAAUGCAUUAACUUUUGUAAGGUACUGAAUACU	0.398
ACCAUUGCAAAGAACGGGAGAAAUAGUCUAAAAAGGUGGGGCUUUGGCAUUCCUACCCUACAUCCUAUUUACCAGCAUACAUCAAACUGCUGCUGAUUUGAUUCCUCAAG	0.626
UAUUUUUUUGAUGGCUAAGCUGUUGCUGACACUGAAAAUAAACUAGGGUUUGGCCUGCCCUAUUUCUAGUGUUGCUUCUCCUUUCCUAGGGACAGUGUGUGUGUGUGUGU	0.752
CUGGAUGUAGAUAUUCUACAAGGAAGUAGAAACUUUUAAUACGAAGUAAUGAUUCCUCUAAAGGGAAAGGAAGUUUUAAGAGGGAGGCUUGGACAAUCUUAGUAUUUACA	1.06
CCAGCCUGGGGUCCAACUCAGACUUGAAAGACUGCAAUAGAAAACUCCCAAACCCAGCACUCCAGACUCGAGGGAAGCCAGCUUCCAAGAACUGGAAUGCGUACGUCUUU	0.251
AAAAGCCUGCUCCUUACUGCACUCUGGACAAGGCCCUGGUCUGUAUAGUUUGGCUUCCUCUGUUAAGUCAUUCUACAAGGUGACUUGCCAUUUGAACUUUCGUAAGAGAC	0.433
AUGCACAGAGCUUGAGCAAAGGCAUGAAGUCCCUGACAUUGUUUUCCUUUUUGUCUCAGCAUAUAGUAUUAAGAUGCCUAGAAAUAGGACUCUAUUGUUCCCUCUUGUAU	0.724
GCCAGGAGGACUCCAGCCGGUGCUCAGAUAACUCCAGCUAUGAGGAGCCCUUGUCACCCAUCUCAGCCAGCUCGUCCACCUCGCGACGGCGCCAAGGCCAGAGGGACCUG	0.395

Block 3 — technique: EMSA with sequencing; form: double-stranded DNA, one strand shown; medium: in vitro; tested at: 10 and 20 nM; relative to: negative control set to 0; direction: higher = stronger binding
Target: Hepatocyte nuclear factor 3-alpha (Foxa1, Mus musculus, UniProt P35582, residues 1-468, full length assumed)
Chain of UniProt P35582 (whole entry, looked up): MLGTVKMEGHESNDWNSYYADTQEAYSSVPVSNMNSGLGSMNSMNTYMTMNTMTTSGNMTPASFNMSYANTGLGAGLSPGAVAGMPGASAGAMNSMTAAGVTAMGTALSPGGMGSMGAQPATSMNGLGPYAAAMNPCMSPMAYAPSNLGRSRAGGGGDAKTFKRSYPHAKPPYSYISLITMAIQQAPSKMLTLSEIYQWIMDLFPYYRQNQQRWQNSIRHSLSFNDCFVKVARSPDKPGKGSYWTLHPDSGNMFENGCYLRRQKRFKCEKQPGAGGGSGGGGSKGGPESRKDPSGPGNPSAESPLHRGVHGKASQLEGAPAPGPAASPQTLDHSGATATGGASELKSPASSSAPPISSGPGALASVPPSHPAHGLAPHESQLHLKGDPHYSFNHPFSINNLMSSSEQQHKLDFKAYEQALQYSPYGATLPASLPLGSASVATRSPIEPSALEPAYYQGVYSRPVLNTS
Notes: whole designed probe, mean of two concentrations, ends assumed
Shared flanks, not repeated: GTGAGCGGTGCCCATTGATGGGGAAC … TTTCACTGGGATCGTGGGGAC
Strand	normalised bound fraction [ratio]
ACAGCAACTAGGTAGAGAGAGTTCACAGTTTGTGAACTCTGTGAATCTGGTATCAGGCTGGCTGGGAGAAGGGCCTAAAGGGTGTGTGAAATGTAATCTAGGGCTTCCTGACGCTGCTCTGTGACTTGTGCTAAACTTTCTGGGGGTGGCAGACCCAGAGTAGTCATACCCAATCCATGAATCCAACATTCAC	-0.0544
GCTTTAAATATCAAGCCTAAGCTAATGTAAGCAAAGGATATTGTTAGTAGTAGCAAATTAGTATTAGTAGTAGCAAATTAATTAATTCAGTGATGTTTACTAAATATCCTCAATTATGTTATTTGTTAATTTGAAGTTTCTGTAAGAAAGAGAATACATGAACTTGAATTTCACAAATACCTGTGAATTGCAC	0.201
ATCTTCCCCCTCTTCCTTGCCCCACCAGCTCACCTACGGGGGTTATTTGCACAAAGGAAAATAAATAAAGCCGGCATTCGTTAACCCTCTTCTGGCGCAAACTGCTGTTTGCTCTGCATCTAACATGGTCCTTACGCGACGCCAGGCTCCGGGAGAGCAAAGCACCGTGTCAGGCGCATGATCCGGGCTCGCC	0.389
TGCACCTATATAAAATATAGGTTTATTGTTCTTTGTGTCAATGGCATGTATTATTTTGGCTATTCTAGAAAAGAAATTACGTTGGAATTCCAATGTAATCTTGTTTGTGTGAATCAGTAACCTTCTCTTTCTTTTGTATGTCATAAGAAAGCAACAAATGAGTTGTTAAATGCTAAAATTAAACACCATTTTA	0.0422
GACAGTACATGTTTTAGGATTTTTGGACCACACAGTCTCTGTCACAATGACTCAGCTTTGCCATTGTAGCGTGCAAACAGCCACAAACCATATGCAAACAAATGTATGCCAATAAAGAGGGTGTGGTACTTTATTTACAAAAGCAGGAGGACAGTGGAGTTGGCTTGCAGACAGTCATTTGCAGAGCCCTGAT	0.443
AGCAAGGCTTTAAAAGTGAGGTCTTTCAGTTTAGATGCAAAAAGGGTGGTTCTGTTGAGTCAACCCAGCTATTTCACTAGTTTCGTAATCATAGTAAACACCTAGAATGAGGTAGCTGGAGTGCAAATCTAAATGGCTTGTGACAGTTAAGGAAGTACATAGGCAACAGTTACTGGTTTTCTTGATGCAGCTG	-0.0256
ATCTTCCCCCTCTTCCTTGCCCCACCAGCTCACCTACGGGGGTTATTTGCAGATAGGAAAATAAATAAAGCCGGCATTCGTTAACCCTCTTCACGCGCATACTGCTGTTTGCTCTGGATCTAACATGGTCCTTTGGCGACGCCAGGCTCCGGGAGAGCAAAGCACCGTGTCAGGGCCATGATCCGGGGTGGCC	0.357
AAAGGGTATTGTTTCAAAGCAGGGCTAGCAGAAGGCAGTAGACAGAGGGTGTTCGCTGTCAGAGTCTGGGGCGCTGCTGCAGGCTCACCTGGCTGTGTACACAGCTCCCATTCACCTAGTGAAATCGTGTAAATAATGAAGTGCACACATTGCATAACAAACAGGAACTCTTCTGATCCAAAGAGGTGGCATT	0.308

Block 4 — technique: protein binding microarray; form: double-stranded DNA, one strand shown; medium: in vitro; tested at: not given; relative to: not given; direction: higher = stronger binding
Target: Histone acetyltransferase KAT6A, winged helix 1, GST fusion (KAT6A, Homo sapiens, UniProt Q92794, residues 1-85)
Notes: 8-mer, flanks averaged, mean of 2 arrays, mostly near background
Residues (chain): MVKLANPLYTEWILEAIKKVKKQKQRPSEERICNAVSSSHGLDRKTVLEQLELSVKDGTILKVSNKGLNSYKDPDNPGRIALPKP
Strand	E-score
ATAAGACG	0.0133
AAGTCCAA	-0.161
CTCATAAC	-0.146
ATAAAACC	-0.0618
CGAGTGCA	-0.104
AGCCATGG	-0.127
GAACGACA	-0.228
TCGGAACA	-0.0137
GCGTCCAC	0.169
GCCACTAA	-0.136
AGTCTAAT	-0.0849
GTGCTAGA	-0.127
TCGCACAA	-0.0596
CCAGTCGG	0.0227
CATGGTAG	-0.00598
AAAGTATC	-0.0745
GCGCCTCC	0.261
AGTGCTCG	-0.0991
GATCCAAC	-0.105
AGTCCACC	-0.215
GTTCAGGA	-0.154
ACTCTGTC	-0.135
ATTGTGGA	-0.367
CGGGATAG	0.153
GAGTCTCC	-0.0535

Some of these lines once more (block 4):
Strand	E-score
GAACGACA	-0.228
TCGGAACA	-0.0137
GCGTCCAC	0.169
GCCACTAA	-0.136
AGTCTAAT	-0.0849
GTGCTAGA	-0.127
TCGCACAA	-0.0596
CCAGTCGG	0.0227
